Published values gathered from unrelated publications.
Protocols differ between the studies behind these lines.

The selectivity index of `COc1cc([C@@H]2c3cc4c(cc3C=C(C=O)[C@H]2C(=O)OCCCn2cnc3c(Cl)ncnc32)OCO4)cc(OC)c1OC` is reported as 1.3 (Leishmania infantum; Alamar Blue; HepG2; relative to: CC50 HepG2 over EC50 amastigotes).
With `C=CC(=O)Nc1cccc(N(C(=O)OCc2ccc(F)cc2)c2ccnc(Nc3ccn(C)n3)n2)c1` the EC50 was 30 nM (Ba/F3 EGFR insGY; cell growth; above 10 µM not active).
For `O=C(Nc1ccc2cc(NC(=O)C(F)(F)F)nc(Br)c2c1)C(F)(F)F`, protein level read “decreased” (LX-2; western blot, item: collagen I; concentration not given, with: TGF-β1).
`CCOc1ccccc1Nc1nnc(SCC(=O)Nc2cc(F)ccc2F)s1` has a CD69 reduction of over 70% (A549 spheroids with human PBMCs; 25 µM, 48 h, with: soluble anti-CD3; relative to: anti-CD3 alone).
With `C=CC(=O)N1CCC(c2cc(Nc3cc4n(n3)CCOC4)c3ncnn3c2)C1` (single isomer, unassigned) the maximum inhibition was 40.6% (TMD8 wild type; calcium flux, FLIPR; 1 h preincubation, with: anti-IgM).
For `Nc1ccc2cc(N)ncc2c1`, mRNA level read “decreased” (LX-2; qPCR, item: ACTA2; concentration not given, with: TGF-β1).
With `COC(=O)[C@@H]1C(C=Nc2cncnc2N)=Cc2cc3c(cc2[C@H]1c1cc(OC)c(OC)c(OC)c1)OCO3` the selectivity index was over 1.5 (Leishmania; mouse splenocytes; relative to: CC50 over amastigote EC50).
`CCOc1ccc(S(=O)(=O)NC(=O)Cc2ccc(I)cc2)cc1Br` — result for inhibition: “no effect” (THP1-Dual; NF-κB reporter gene; 100 µM, 16 h, with: ht-DNA transfection).
Under protein level, `Cc1nn(C)c2c(C(C(=O)O)N3CC(OCCCCc4ccc5c(n4)NCCC5)C3)cccc12` (stereo not drawn) is recorded as “decreased” (PAH PASMCs; Western blot, item: PLK1, NEK2, p-β-catenin; concentration not given).
`CN(C)C(=O)Cn1cc(-c2ccc(-c3cncc4ccncc34)cc2)cn1`: “CD33 surface level” “no effect” (primary AML cells; flow cytometry; concentration not given).
`CC(=NN=c1[nH]c2cc(F)c(F)cc2n1C)c1ccc(F)cn1` has an effective concentration of 62.5 nM (triple-negative breast cancer PDX organoids; organoid growth, inhibitor; two weeks).
`COC(=O)[C@@]1(C)C=C(C(=O)Nc2cccc(C(=O)NC34CC(Nc5nccc(-c6cccnc6)n5)(C3)C4)c2)C(=O)CC1` gave a remaining activity of 0.138 fraction of control (Mitogen-activated protein kinase 9 (MAPK9, Homo sapiens, UniProt P45984); enzyme activity, inhibitor; 0.5487 µM).

Excerpt of the above:
With `C=CC(=O)Nc1cccc(N(C(=O)OCc2ccc(F)cc2)c2ccnc(Nc3ccn(C)n3)n2)c1` the EC50 was 30 nM (Ba/F3 EGFR insGY; cell growth; above 10 µM not active).
For `O=C(Nc1ccc2cc(NC(=O)C(F)(F)F)nc(Br)c2c1)C(F)(F)F`, protein level read “decreased” (LX-2; western blot, item: collagen I; concentration not given, with: TGF-β1).
